Experimental data of several laboratories.
Protocols differ between the studies behind these lines. Numbers after ± are the reported error.

SMILES	test	test system	conditions	how to read	endpoint	result
CN(C)C(=O)c1cncc(N2Cc3cn(Cc4ccc(F)cc4)nc3C2)n1	refers to: EAE clinical score	mice EAE model	ip, 5 mg/kg daily, 264 h, unit not given	reference: vehicle	effect size d	-2.21
Cc1cc2c(cc1C1(c3ncc(C(=O)O)cn3)CC1)C(C)(C)CCC2(C)C	RNA sequencing, refers to: Pdk4	rat, brain	dose not given, 24 h	reference: vehicle	log2 fold change	-0.07
CSCC[C@@H]1NC(=O)[C@H](CCCCN)NC(=O)[C@H]([C@@H](C)O)NC(=O)[C@H](CCCCN)NC(=O)[C@H](CC(C)C)NC(=O)[C@H](CCCCN)NC(=O)[C@H](CCCNC(=N)N)NC(=O)[C@@H]2CSSC[C@@H]3NC(=O)[C@@H]4CCCN4C(=O)[C@H](C(C)C)NC(=O)[C@H](CCC(N)=O)NC(=O)[C@H](CCC(N)=O)NC(=O)CNC(=O)[C@H](CC(C)C)NC(=O)[C@@H]4CSSC[C@H](NC(=O)[C@H]([C@@H](C)O)NC(=O)[C@H](C)NC(=O)[C@H](CSSC[C@@H](C(=O)N[C@@H](CO)C(=O)N[C@@H](CCCNC(=N)N)C(=O)N[C@H](C(N)=O)[C@@H](C)O)NC(=O)[C@@H]5CCCN5C(=O)[C@H](CC(N)=O)NC1=O)NC(=O)[C@@H]1CCCN1C(=O)[C@H](CC(=O)O)NC(=O)[C@H](CSSC[C@H](NC(=O)[C@H](CCCNC(=N)N)NC(=O)[C@H](CCCNC(=N)N)NC(=O)[C@H](CO)NC(=O)[C@@H](N)CO)C(=O)N[C@@H](C(C)C)C(=O)N[C@@H](CCCNC(=N)N)C(=O)N[C@@H](CC(C)C)C(=O)N[C@@H](Cc1c[nH]cn1)C(=O)N[C@@H](CCC(=O)O)C(=O)N[C@@H](CO)C(=O)N4)NC3=O)C(=O)N[C@@H](Cc1ccc(O)cc1)C(=O)N[C@H]1CSSC[C@H](NC(=O)[C@H](Cc3ccccc3)NC(=O)[C@H](C)NC(=O)[C@H](CC(N)=O)NC(=O)[C@H](Cc3ccccc3)NC(=O)[C@H](Cc3ccccc3)NC(=O)[C@H](CCCNC(=N)N)NC1=O)C(=O)N[C@@H](Cc1ccc(O)cc1)C(=O)N2		Long-Evans rat, male	intracerebroventricular, 1.0 nmol, day 3, non-cumulative	reference: saline	food intake	77.3 ± 4.3 % above saline
O=c1c(OCc2ccccc2)c(-c2cccc([N+](=O)[O-])c2)oc2ccccc12		diabetic rat	5 mg/kg, day 14, p-nitrophenyl β-glucoside induced		blood glucose	236 ± 4.68 mg/dL
COc1ccc(C2CC(c3ccc(C)cc3)=Nc3ccccc3S2)cc1OC (stereo not shown)		rat, normal, overnight fasted	oral, 20 mg/kg, 60 min, oral glucose tolerance test, with: glucose 3 g/kg oral		blood glucose	109 ± 4.56 mg/dL
O=c1c(OCc2ccccc2)c(-c2ccc([N+](=O)[O-])cc2)oc2ccccc12		diabetic rat	5 mg/kg, day 21, p-nitrophenyl β-glucoside induced		blood glucose	189 ± 4.65 mg/dL
COc1ccc(C2CC(c3ccc(C)cc3)=Nc3ccccc3S2)cc1 (stereo not shown)		Wistar rat, STZ-induced diabetes	oral, 20 mg/kg once daily, day 1		blood glucose	380 ± 5.08 mg/dL
COc1ccc2c(c1)c(CC(=O)OCC(=O)c1ccccc1)c(C)n2C(=O)c1ccc(Cl)cc1	hot plate test	BALB/c mice	100 mg/kg, 90 min		latency of nociceptive response	16.7 ± 1.16 s
Cn1c(=O)n(Cc2ccc(C(=O)O)cc2)c(=O)c2cc(C#CCc3ccccc3)ccc21		female B10.RIII mice, antibody-induced arthritis	oral, 100 mg/kg twice daily, day 14, dosing from day 4	reference: vehicle	arthritic score	decreased
COc1cc(CN2CCN(c3ccc(OC(F)(F)F)cc3)CC2)c2cc3[n+](cc2c1O)CCc1cc2c(cc1-3)OCO2	ABTS scavenging, absorbance		10 min		IC50	11.6 µg/mL
CN(C)/C=C1/C(=O)c2sccc2N(C)S1(=O)=O			100 µM, pH 7.4, 37 °C, 10% acetonitrile, with: DTNB		second-order rate constant	2.6 M⁻¹ s⁻¹
O=C1CC(c2ccc(O)cc2)Oc2c1c(O)cc1oc3cc(O)c(O)cc3c21 (racemic)	DPPH scavenging, absorbance				EC50	170 µM
N#Cc1c(Nc2ccccc2C(F)(F)F)s[nH]c1=O		mouse, sciatic nerve axotomy, plasma	intraperitoneal, 30 mg/kg, two doses, 15 h	reference: vehicle	plasma NfL decrease	-60%
Clc1ccc2[nH]c(-c3ccco3)nc2c1	ABTS scavenging, absorbance				IC50	1.38 µM
COC(=O)[C@H](CSSC(C)(C)[C@H](NC(=O)[C@H](CCC(=O)NC[C@H](O)[C@@H](O)[C@H](O)[C@H](O)CO)NC(=O)[C@H](CCC(=O)O)NC(=O)[C@H](CCC(=O)NC[C@H](O)[C@@H](O)[C@H](O)[C@H](O)CO)NC(=O)[C@H](CCC(=O)O)NC(=O)[C@H](CCC(=O)NC[C@H](O)[C@@H](O)[C@H](O)[C@H](O)CO)NC(=O)CC[C@H](NC(=O)c1ccc(NCc2cnc3nc(N)[nH]c(=O)c3n2)cc1)C(=O)O)C(=O)O)NC(=O)CC[C@H](NC(=O)c1ccc(NCc2cnc3nc(N)nc(N)c3n2)cc1)C(=O)O	flow cytometry	Lewis rat, adjuvant-induced arthritis, blood	subcutaneous, 1000 nmol/kg twice weekly × 1		CD172+ CD43− monocyte effect	decreased
O=C1/C(=C/c2ccccc2)Oc2c1c(O)cc1oc3cc(O)c(O)cc3c21	DPPH scavenging, absorbance				EC50	> 20000 µM
Cc1cc(O)c(C=O)c2c1C(=O)Oc1c(CO)c(O)c3c(c1O2)C(O)OC3=O (stereo not shown)	mating test	rat male, streptozotocin diabetic	10 mg/kg		male fertility	85.4%
COCCOCCOCCOCCOCCOCCOCCOCCOCCOCCOCCOCCOCCOCCOCCOCCOCCOCCOCCOCCOCCOCCNC(=O)CCC1(Cc2ccccc2)c2ccccc2-c2ccc(-c3sc(-c4c5c(c(-c6sc(-c7ccc8c(c7)C(CCC(=O)NCCOCCOCCOCCOCCOCCOCCOCCOCCOCCOCCOCCOCCOCCOCCOCCOCCOCCOCCOCCOCCOCCOC)(Cc7ccccc7)c7ccccc7-8)c7c6OCCO7)c6nsnc46)N=S=N5)c4c3OCCO4)cc21 (stereo not shown)	ex vivo NIR-II imaging	mouse, BDS or BDL biliary atresia	iv, 15 mg/kg, 6 h, days 7 and 14		intestine to liver ratio	~0.5
Cc1ccc(-c2oc3ccccc3c(=O)c2OCc2ccccc2)cc1		diabetic rat	5 mg/kg, day 7, p-nitrophenyl β-glucoside induced		blood glucose	333 ± 4.89 mg/dL

SMILES	test	test system	conditions	how to read	endpoint	result
CCCCCCCOC(=O)Cc1c(C)n(C(=O)c2ccc(Cl)cc2)c2ccc(OC)cc12	hot plate test	BALB/c mice	100 mg/kg, 0 min		latency of nociceptive response	10.1 ± 1.02 s
CC(=O)Nc1ccc(OC(=O)CCC(=O)[O][Pt-2]23([O]C(=O)CCC(=O)Oc4ccc(NC(C)=O)cc4)([NH2+][C@@H]4CCCC[C@H]4[NH2+]2)[O]C(=O)C(=O)[O]3)cc1		BALB/c mouse, 4T1 tumour, spleen	dose not given		CD3+CD4+ T cells	25.7%
COc1ccc(-c2oc3ccccc3c(=O)c2OCc2ccccc2)cc1		diabetic rat	7.5 mg/kg, day 28, p-nitrophenyl β-glucoside induced		blood glucose	139 ± 5.61 mg/dL
Cc1cc2nc(-c3cc4ccccc4nc3Cl)[nH]c2cc1C		mouse HepG2 xenograft	10 mg/kg, day 41		T/C tumor increment	31.3%
CC[C@@H](C)N([11CH3])C(=O)c1nc(-c2ccccc2Cl)c2ccccc2n1	PET from VT	rhesus monkey, cerebellum	dose not given		TSPO specific binding	82%
CN(C)c1ccc(-c2oc3ccccc3c(=O)c2OCc2ccccc2)cc1		diabetic rat	7.5 mg/kg, day 1, p-nitrophenyl β-glucoside induced		blood glucose	468 ± 5.48 mg/dL
COc1cc2c(cc1OC)-c1cc3ccc(OC)c(OC)c3c[n+]1CC2		rat, STZ-induced diabetic, serum	oral, 12 mg/kg, day 28		triglycerides	115 ± 3.81 mg/dL
COc1cc(Cn2ccc3cc(C(=O)NCC45CC6CC(CC(C6)C4)C5)ccc32)ccc1C(=O)NO	immunohistochemistry, refers to: amyloid-beta (3D6)	5xFAD mouse, brain	intraperitoneal, 10 mg/kg once daily, 2 months	reference: vehicle	amyloid plaque number	decreased
CC[C@H]1[C@@H](O)[C@@H]2[C@H](CC[C@]3(C)[C@@H]([C@H](C)CCOS(=O)(=O)[O-])CC[C@@H]23)[C@@]2(C)CC[C@@H](O)C[C@@H]12.[Na+]	digital image analysis	ob/ob NASH mouse model, liver	oral, 10 mg/kg once daily, 8 weeks	reference: area	steatosis area	24.8 ± 2.3%
O=c1c(OCc2ccccc2)c(-c2ccc(Cl)cc2)oc2ccccc12		diabetic rat	7.5 mg/kg, day 14, p-nitrophenyl β-glucoside induced		blood glucose	236 ± 4.97 mg/dL
COc1c2c(cc3oc(C)cc(=O)c13)O[C@H](C(C)(C)O[C@@H]1O[C@H](CO)[C@@H](O)[C@H](O)[C@H]1O)C2	analgesia	mouse	oral, 2 mg/kg, 0.5 h		hot plate latency	11.4 ± 2.26 s
C[C@@H](O)[C@@H]1NC(=O)[C@H](CCCCN)NC(=O)[C@@H](Cc2ccc(NC(N)=O)cc2)NC(=O)[C@H](Cc2ccc(NC(=O)[C@@H]3CC(=O)NC(=O)N3)cc2)NC(=O)[C@H](NC(=O)[C@H](Cc2ccc(Cl)cc2)NC(=O)CN2CCN(CC(=O)O)CCN(CC(=O)O)CCN(CC(=O)O)CC2)CSSC[C@@H](C(=O)N[C@H](Cc2ccc(O)cc2)C(N)=O)NC1=O [gallium-68 labelled]	PET/CT	neuroendocrine tumour patients, lymph node lesions	60 min		SUVmean	7 ± 6
Cc1cccc(O[C@H]2CCC[C@@H](C(C)CNCc3ccncc3)C2)c1 (relative stereo)		APP/PS1 mouse	dose not given, chronic treatment		plasma MIP-2 level	decreased
O=c1cc(-c2ccc(O)c(O)c2)oc2cc(O[C@@H]3O[C@H](CO)[C@@H](O)[C@H](O)[C@H]3O)cc(O)c12	ABTS scavenging, absorbance		15 min		IC50	113 µg/mL
CC(C)(O)c1ncc([S@](N)(=O)=NC(=O)Nc2c3c(cc4c2CCC4)CCC3)s1	IL-1β release, Bayesian PK/PD model	healthy humans, whole blood ex vivo	Emax fixed at 1, with: LPS		Hill coefficient	0.715
COc1cc(CN2CCN(c3ccc(F)cc3)CC2)c2cc3[n+](cc2c1O)CCc1cc2c(cc1-3)OCO2	ABTS scavenging, absorbance		10 min		IC50	4.64 µg/mL
O=c1cc(-c2ccc(O)cc2)oc2c(-c3ccc(O)c(O)c3)c(O)cc(O)c12	DPPH scavenging, absorbance				EC50	60 µM
Fc1ccc(CSc2nnc(C34CC5CC(CC(C5)C3)C4)n2-c2ccccc2)cc1	paw oedema	rat	intraperitoneal, 40 mg/kg		inhibition in vivo	27%

A few entries again:
SMILES	test	test system	conditions	how to read	endpoint	result
O=c1c(OCc2ccccc2)c(-c2cccc([N+](=O)[O-])c2)oc2ccccc12		diabetic rat	5 mg/kg, day 14, p-nitrophenyl β-glucoside induced		blood glucose	236 ± 4.68 mg/dL
COc1ccc(C2CC(c3ccc(C)cc3)=Nc3ccccc3S2)cc1OC (stereo not shown)		rat, normal, overnight fasted	oral, 20 mg/kg, 60 min, oral glucose tolerance test, with: glucose 3 g/kg oral		blood glucose	109 ± 4.56 mg/dL
O=c1c(OCc2ccccc2)c(-c2ccc([N+](=O)[O-])cc2)oc2ccccc12		diabetic rat	5 mg/kg, day 21, p-nitrophenyl β-glucoside induced		blood glucose	189 ± 4.65 mg/dL
COc1ccc(C2CC(c3ccc(C)cc3)=Nc3ccccc3S2)cc1 (stereo not shown)		Wistar rat, STZ-induced diabetes	oral, 20 mg/kg once daily, day 1		blood glucose	380 ± 5.08 mg/dL
